# Experimental data collected from several papers.
# A part holds a random share of what one study measured.
# Chain of UniProt Q15349 (whole entry, looked up): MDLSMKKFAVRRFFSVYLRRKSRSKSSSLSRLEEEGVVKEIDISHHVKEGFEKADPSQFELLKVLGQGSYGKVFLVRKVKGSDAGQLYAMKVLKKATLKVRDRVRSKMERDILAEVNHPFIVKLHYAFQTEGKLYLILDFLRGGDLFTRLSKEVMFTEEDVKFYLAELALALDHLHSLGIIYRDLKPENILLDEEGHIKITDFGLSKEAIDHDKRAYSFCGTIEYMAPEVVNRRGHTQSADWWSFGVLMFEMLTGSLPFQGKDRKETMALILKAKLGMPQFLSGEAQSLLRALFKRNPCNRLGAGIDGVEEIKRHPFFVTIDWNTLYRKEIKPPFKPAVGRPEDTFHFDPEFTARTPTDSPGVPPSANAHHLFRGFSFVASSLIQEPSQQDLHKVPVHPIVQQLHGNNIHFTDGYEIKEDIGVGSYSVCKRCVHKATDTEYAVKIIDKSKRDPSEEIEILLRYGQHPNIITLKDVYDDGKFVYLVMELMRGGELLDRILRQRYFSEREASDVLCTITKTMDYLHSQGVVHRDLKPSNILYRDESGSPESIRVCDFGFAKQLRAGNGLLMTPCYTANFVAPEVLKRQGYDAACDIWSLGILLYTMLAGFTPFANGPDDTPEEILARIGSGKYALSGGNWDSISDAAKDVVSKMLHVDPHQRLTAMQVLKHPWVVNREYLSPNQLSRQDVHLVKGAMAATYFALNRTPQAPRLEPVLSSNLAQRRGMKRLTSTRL
# Chain of UniProt P10721 (whole entry, unmodified, looked up): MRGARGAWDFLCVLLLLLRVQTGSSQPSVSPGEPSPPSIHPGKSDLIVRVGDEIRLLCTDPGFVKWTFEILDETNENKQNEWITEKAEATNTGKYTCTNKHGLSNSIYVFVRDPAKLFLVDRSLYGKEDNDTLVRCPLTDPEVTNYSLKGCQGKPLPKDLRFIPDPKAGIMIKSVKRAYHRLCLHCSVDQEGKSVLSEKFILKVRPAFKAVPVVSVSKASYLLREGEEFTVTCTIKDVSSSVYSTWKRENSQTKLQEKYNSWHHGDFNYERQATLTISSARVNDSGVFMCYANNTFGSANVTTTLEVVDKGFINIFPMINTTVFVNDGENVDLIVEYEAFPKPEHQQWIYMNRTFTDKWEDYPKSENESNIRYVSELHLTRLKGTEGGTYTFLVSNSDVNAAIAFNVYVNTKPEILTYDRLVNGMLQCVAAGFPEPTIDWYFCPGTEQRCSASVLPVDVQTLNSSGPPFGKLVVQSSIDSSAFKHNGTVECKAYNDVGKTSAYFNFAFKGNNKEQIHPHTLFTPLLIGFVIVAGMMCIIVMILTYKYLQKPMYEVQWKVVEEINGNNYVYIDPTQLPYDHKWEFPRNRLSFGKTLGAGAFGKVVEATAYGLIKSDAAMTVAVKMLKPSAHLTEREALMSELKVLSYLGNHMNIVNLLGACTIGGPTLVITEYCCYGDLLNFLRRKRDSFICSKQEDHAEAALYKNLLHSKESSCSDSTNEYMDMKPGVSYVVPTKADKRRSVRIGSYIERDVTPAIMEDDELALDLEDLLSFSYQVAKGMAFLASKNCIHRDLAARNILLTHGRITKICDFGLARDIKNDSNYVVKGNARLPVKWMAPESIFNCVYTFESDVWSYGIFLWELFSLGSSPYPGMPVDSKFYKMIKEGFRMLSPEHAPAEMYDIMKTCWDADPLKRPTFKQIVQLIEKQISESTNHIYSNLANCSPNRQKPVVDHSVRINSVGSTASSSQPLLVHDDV
# Chain of UniProt P27361 (whole entry, looked up): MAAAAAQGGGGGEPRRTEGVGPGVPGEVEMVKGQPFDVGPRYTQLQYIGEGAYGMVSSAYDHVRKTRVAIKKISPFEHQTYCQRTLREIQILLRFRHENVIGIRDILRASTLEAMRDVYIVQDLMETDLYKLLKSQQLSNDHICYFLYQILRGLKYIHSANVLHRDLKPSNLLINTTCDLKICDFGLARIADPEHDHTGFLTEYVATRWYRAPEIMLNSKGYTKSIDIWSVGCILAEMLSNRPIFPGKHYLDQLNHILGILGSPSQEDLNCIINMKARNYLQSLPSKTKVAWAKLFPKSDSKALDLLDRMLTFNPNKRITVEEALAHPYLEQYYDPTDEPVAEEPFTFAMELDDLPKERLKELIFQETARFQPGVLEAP
# Chain of UniProt Q9UHD2 (whole entry, looked up): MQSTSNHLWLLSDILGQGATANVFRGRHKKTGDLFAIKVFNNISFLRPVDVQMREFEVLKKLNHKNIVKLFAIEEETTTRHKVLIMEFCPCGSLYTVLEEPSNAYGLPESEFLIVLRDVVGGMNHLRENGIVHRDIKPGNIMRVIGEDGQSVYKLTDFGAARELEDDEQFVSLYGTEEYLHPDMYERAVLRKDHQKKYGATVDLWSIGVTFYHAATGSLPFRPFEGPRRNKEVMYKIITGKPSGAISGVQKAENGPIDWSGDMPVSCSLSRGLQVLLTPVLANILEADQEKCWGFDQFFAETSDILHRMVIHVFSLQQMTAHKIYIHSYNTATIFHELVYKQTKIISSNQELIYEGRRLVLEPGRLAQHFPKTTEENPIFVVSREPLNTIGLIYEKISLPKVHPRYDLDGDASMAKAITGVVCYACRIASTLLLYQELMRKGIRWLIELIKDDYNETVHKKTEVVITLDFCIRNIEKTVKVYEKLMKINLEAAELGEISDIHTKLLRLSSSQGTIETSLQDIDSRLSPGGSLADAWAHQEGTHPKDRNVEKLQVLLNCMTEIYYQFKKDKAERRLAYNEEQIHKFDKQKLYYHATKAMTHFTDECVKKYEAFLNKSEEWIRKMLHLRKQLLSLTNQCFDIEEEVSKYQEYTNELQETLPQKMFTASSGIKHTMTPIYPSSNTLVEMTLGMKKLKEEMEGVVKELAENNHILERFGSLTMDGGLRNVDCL
# Chain of UniProt Q8IYT8 (whole entry, looked up): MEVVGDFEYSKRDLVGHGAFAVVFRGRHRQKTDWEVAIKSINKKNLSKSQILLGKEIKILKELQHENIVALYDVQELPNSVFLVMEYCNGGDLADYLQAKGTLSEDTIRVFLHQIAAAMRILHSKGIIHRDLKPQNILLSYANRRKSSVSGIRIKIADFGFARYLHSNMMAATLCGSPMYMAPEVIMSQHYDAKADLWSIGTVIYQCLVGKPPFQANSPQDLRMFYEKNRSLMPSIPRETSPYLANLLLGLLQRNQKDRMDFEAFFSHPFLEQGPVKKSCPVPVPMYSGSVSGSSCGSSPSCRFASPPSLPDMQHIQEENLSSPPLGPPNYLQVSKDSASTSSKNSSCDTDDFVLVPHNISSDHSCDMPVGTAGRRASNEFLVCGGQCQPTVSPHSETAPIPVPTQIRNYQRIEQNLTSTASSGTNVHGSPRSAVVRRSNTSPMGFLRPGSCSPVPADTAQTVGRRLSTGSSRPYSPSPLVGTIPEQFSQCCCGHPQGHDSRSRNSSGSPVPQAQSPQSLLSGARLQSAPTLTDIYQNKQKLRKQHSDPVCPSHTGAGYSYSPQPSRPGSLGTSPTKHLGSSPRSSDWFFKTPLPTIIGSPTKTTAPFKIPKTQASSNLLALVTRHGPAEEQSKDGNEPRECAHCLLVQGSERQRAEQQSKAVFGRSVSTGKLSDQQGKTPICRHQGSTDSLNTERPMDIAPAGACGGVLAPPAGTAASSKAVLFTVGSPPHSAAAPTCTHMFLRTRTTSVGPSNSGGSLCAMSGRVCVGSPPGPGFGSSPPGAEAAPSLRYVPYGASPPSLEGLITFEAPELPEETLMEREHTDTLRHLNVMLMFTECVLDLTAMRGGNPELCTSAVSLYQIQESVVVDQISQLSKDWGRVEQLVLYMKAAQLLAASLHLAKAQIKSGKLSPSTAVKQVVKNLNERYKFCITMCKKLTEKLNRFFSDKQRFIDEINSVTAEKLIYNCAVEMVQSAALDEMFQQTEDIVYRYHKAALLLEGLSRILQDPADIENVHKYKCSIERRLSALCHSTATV
# Chain of UniProt P42685 (whole entry, looked up): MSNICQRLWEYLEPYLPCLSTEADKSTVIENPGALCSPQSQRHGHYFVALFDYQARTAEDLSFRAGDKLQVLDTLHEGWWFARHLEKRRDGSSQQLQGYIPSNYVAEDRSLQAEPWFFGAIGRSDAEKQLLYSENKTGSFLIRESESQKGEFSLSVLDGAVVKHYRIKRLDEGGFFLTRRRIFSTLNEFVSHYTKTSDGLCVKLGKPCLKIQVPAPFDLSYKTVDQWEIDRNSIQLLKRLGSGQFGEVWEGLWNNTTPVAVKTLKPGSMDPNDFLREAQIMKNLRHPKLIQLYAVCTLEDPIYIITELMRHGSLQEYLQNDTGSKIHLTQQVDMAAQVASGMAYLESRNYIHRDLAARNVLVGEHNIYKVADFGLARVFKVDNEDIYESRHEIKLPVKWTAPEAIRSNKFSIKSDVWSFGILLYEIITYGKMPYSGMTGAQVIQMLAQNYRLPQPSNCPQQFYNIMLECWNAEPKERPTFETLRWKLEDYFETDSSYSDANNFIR
# Chain of UniProt P36507 (whole entry, looked up): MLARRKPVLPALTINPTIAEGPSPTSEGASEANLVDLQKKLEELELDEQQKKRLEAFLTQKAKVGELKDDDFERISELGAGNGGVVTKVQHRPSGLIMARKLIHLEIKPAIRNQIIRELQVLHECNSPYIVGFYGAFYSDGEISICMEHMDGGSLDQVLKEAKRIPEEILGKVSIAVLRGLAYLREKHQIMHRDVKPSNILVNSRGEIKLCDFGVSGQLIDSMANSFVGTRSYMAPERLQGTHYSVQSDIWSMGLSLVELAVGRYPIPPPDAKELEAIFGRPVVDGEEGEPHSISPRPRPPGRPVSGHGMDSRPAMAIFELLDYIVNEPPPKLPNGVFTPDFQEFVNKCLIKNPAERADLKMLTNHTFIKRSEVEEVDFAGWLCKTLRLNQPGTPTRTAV

# Sample 1
# Structure (SMILES): CS(=O)(=O)NCC[C@H](NC(=O)c1cncc2c1cnn2-c1ccc(F)cc1)c1ccnc(S(C)(=O)=O)c1
# Read-out: cell-free assay
# Method: competition with immobilised ligand
# Concentration: 1 µM
target,remaining binding
"KIT (Homo sapiens, UniProt P10721)",100%
"SRPK2 (Homo sapiens, UniProt P78362)",100%
"BMX (Homo sapiens, UniProt P51813)",100%
"Ribosomal protein S6 kinase alpha-2, C-terminal kinase domain (RPS6KA2, Homo sapiens, UniProt Q15349)",100%
"Tyrosine-protein kinase ABL1, non-phosphorylated (ABL1, Homo sapiens, UniProt P00519)",90%
"KIT (Homo sapiens, UniProt P10721, V559D/V654A)",100%

# Sample 2
# Cell line: HaCaT
# Concentration: 100 µM
# Time: 18 h
SMILES,viability [%]
CCOc1nc2cccc(C(=O)OCc3oc(=O)oc3C)c2n1Cc1ccc(-c2ccccc2-c2noc(=O)[nH]2)cc1,91.5
CC(=O)[C@H]1CC[C@H]2[C@@H]3C[C@H](C)C4=CC(=O)CC[C@]4(C)[C@H]3[C@@H](O)C[C@]12C,82.1
CC(=O)OC/C=C(C)/C=C/C=C(C)/C=C/C1=C(C)CCCC1(C)C,86.4
Cc1ccsc1/C=C/C1=NCCCN1C,114
CC(=O)[C@H]1CC[C@H]2[C@@H]3CCC4=CC(=O)CC[C@]4(C)[C@H]3CC[C@]12C,96.2
CC(C(=O)O)c1ccc2c(c1)[nH]c1ccc(Cl)cc12 (centres unmarked),97.5
OC[C@H]1O[C@@H](O[C@@H]2[C@@H](CO)OC(O)(CO)[C@H]2O)[C@H](O)[C@@H](O)[C@H]1O (mixture of isomers),110
CC1(C)C(C=C(Cl)Cl)C1C(=O)OCc1cccc(Oc2ccccc2)c1 (centres unmarked),116

# Sample 3
# Compound: CC(C)c1nn(-c2c(Cl)cccc2Cl)c2nc(Cc3ccc(OCCO)cc3)[nH]c(=O)c12
# Read-out: enzyme activity
# Action: inhibitor
# Concentration: 0.5 µM
# Reference: control
target,remaining activity
"GRK7 (Homo sapiens, UniProt Q8WTQ7)",106%
"NEK1 (Homo sapiens, UniProt Q96PY6)",90.9%
"CSNK1G3 (Homo sapiens, UniProt Q9Y6M4)",95.7%
"LCK (Homo sapiens, UniProt P06239)",88.6%
"MERTK (Homo sapiens, UniProt Q12866)",96.1%
"CSNK1G2 (Homo sapiens, UniProt P78368)",95.7%
"EPHA3 (Homo sapiens, UniProt P29320)",86.2%
"TBK1 (Homo sapiens, UniProt Q9UHD2)",97.7%
"FRK (Homo sapiens, UniProt P42685)",89.6%
"FGFR1 (Homo sapiens, UniProt P11362)",84.2%
"MAP3K5 (Homo sapiens, UniProt Q99683)",119%
"ACVR1B (Homo sapiens, UniProt P36896)",109%
"MST1R (Homo sapiens, UniProt Q04912)",97.5%
"MAPKAPK2 (Homo sapiens, UniProt P49137)",95.4%
"ULK2 (Homo sapiens, UniProt Q8IYT8)",86.6%
"RPS6KA2 (Homo sapiens, UniProt Q15349)",80.8%
"MAP2K2 (Homo sapiens, UniProt P36507)",98.5%
"FGFR3 (Homo sapiens, UniProt P22607)",97%
"MAPK3 (Homo sapiens, UniProt P27361)",101%
"TEK (Homo sapiens, UniProt Q02763)",100%
"NEK6 (Homo sapiens, UniProt Q9HC98)",105%
"TAOK2 (Homo sapiens, UniProt Q9UL54)",93.3%
"GSK3B (Homo sapiens, UniProt P49841)",47.1%
"MAP3K14 (Homo sapiens, UniProt Q99558)",97.3%
"WEE1 (Homo sapiens, UniProt P30291)",109%

# Sample 4
# Sample: 1,9-decadiene/PBS
# pH: 7.4
SMILES,logD
CC(C)C[C@@H]1NC(=O)[C@H](C)NC(=O)[C@@H](CC(C)C)NC(=O)[C@H](C)NC(=O)[C@H](CC(C)C)NC(=O)[C@H](CC(C)C)NC(=O)[C@H](C)NC1=O,-1.3
CC(C)C[C@@H]1NC(=O)[C@H](CC(C)C)NC(=O)[C@@H](CC(C)C)NC(=O)[C@H](C)NC(=O)[C@@H](Cc2cscn2)NC(=O)[C@@H](CC(C)C)NC(=O)[C@H](C)NC1=O,-1.08
CC(C)C[C@@H]1NC(=O)[C@H](CC(C)C)NC(=O)[C@H](CC(C)C)NC(=O)[C@H](CC(C)C)NC(=O)[C@@H](Cc2cscn2)NC(=O)[C@H](CCC(=O)N2CCCC2)NC(=O)[C@H](C)NC1=O,-1.89
CC(C)C[C@@H]1NC(=O)[C@H](C)NC(=O)[C@H](Cc2cscn2)NC(=O)[C@H](CCC(=O)N2CCCC2)NC(=O)[C@H](CC(C)C)NC(=O)[C@H](CC(C)C)NC(=O)[C@@H](C(C)C)NC1=O,-2.46
CC(C)C[C@@H]1NC(=O)[C@H](CC(C)C)NC(=O)[C@@H](CC(C)C)NC(=O)[C@H](CC(C)C)NC(=O)[C@@H](Cc2cscn2)NC(=O)[C@H](Cc2cscn2)NC(=O)[C@H](CCC(=O)N2CCCC2)NC1=O,-0.984
CC(C)C[C@@H]1NC(=O)[C@H](C)NC(=O)[C@H](CC(C)C)NC(=O)[C@@H](CC(C)C)NC(=O)[C@H](CC(C)C)NC(=O)[C@H](C)NC(=O)[C@@H](CC(C)C)NC1=O,-0.142
CC(C)C[C@@H]1NC(=O)[C@H](C)NC(=O)[C@@H](CC(C)C)NC(=O)[C@H](C)NC(=O)[C@H](C)NC(=O)[C@H](CC(C)C)NC(=O)[C@@H](CC(C)C)NC1=O,-1.63
CC(C)C[C@@H]1NC(=O)[C@H](Cc2cscn2)NC(=O)[C@H](Cc2cscn2)NC(=O)[C@@H](CC(C)C)NC(=O)[C@@H](CCC(=O)N2CCCC2)NC(=O)[C@H](CC(C)C)NC(=O)[C@@H](CC(C)C)NC1=O,-0.635
CC(C)C[C@@H]1NC(=O)[C@@H](C)NC(=O)[C@H](CCC(=O)N2CCCC2)NC(=O)[C@@H](C(C)C)NC(=O)[C@H](C(C)C)NC(=O)[C@H](CC(C)C)NC(=O)[C@@H](CC(C)C)NC1=O,-0.66

# Sample 5
# Host: mouse
# Sample: microsomes or S9
# Concentration: 2 µM
# Time: 0.5 h
Compound,remaining compound [%]
N#Cc1ccnc(-n2cnc(Br)n2)c1,66
O=C(/C=C/c1ccc(O)cc1)NCCc1ccc(O)cc1,84.1
CC(=O)c1ccc(N2CCOCC2)c(-c2cccc3c2OCC3)c1,1.09
CC1=C(COc2ccc3ccc(=O)oc3c2)[C@@]2(C)CCC(=O)C(C)(C)[C@@H]2CC1,0
CCCC(=O)N(Cc1cc2ccc(C)cc2[nH]c1=O)C(C)(C)C,2.6
O=c1c2cc3c(=O)n(C4CCCC4)ccc3nc2ccn1-c1ncn[nH]1,59.6
CCC(=O)CC(=O)Nc1cccc(Cl)c1Cl,18.4
Cn1cc(-c2nn(S(=O)(=O)c3ccc(Br)s3)c(-c3cnn(C)c3)c2Cl)cn1,0.0123

# Repeated from above (sample 5):
Compound,remaining compound [%]
O=c1c2cc3c(=O)n(C4CCCC4)ccc3nc2ccn1-c1ncn[nH]1,59.6
N#Cc1ccnc(-n2cnc(Br)n2)c1,66
CCCC(=O)N(Cc1cc2ccc(C)cc2[nH]c1=O)C(C)(C)C,2.6
CCC(=O)CC(=O)Nc1cccc(Cl)c1Cl,18.4
CC1=C(COc2ccc3ccc(=O)oc3c2)[C@@]2(C)CCC(=O)C(C)(C)[C@@H]2CC1,0
Cn1cc(-c2nn(S(=O)(=O)c3ccc(Br)s3)c(-c3cnn(C)c3)c2Cl)cn1,0.0123
O=C(/C=C/c1ccc(O)cc1)NCCc1ccc(O)cc1,84.1
CC(=O)c1ccc(N2CCOCC2)c(-c2cccc3c2OCC3)c1,1.09
